Experimental data from different studies.
Each numbered part is a random draw from the data of one study; scales do not carry over between parts.

Set 1
Target: Phosphate system positive regulatory protein PHO4, full length, GST-tagged (PHO4, Saccharomyces cerevisiae, UniProt P07270, residues 1-312)
Technique: competition protein-binding microarray
Molecule type: double-stranded DNA, one strand shown
Medium: in vitro
Tested at: 2 µM
Setting: whole 60-bp probe, lowest competitor level
Together with: Cbf1 competitor, 0.05 µM
Direction: higher = stronger binding
All sequences stand within: … GTCTTGATTCGCTTGACGCTGCTG
Target sequence (chain): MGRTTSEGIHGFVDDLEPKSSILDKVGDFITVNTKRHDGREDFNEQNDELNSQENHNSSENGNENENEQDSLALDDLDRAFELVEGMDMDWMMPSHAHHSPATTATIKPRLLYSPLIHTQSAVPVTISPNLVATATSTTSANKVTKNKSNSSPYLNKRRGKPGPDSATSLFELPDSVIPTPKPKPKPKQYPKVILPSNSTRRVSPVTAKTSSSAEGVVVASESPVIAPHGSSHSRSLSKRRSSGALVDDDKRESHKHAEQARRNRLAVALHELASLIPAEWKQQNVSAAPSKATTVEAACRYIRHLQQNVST
`GGATTTGATTACCATCACGTGATGGAATGCTTTTGT` has a fluorescence intensity of 14600 a.u.
For `TGCTCTCCCCCCTTCCTCGTGCTTTGCGACTGTTTA`, the fluorescence intensity was 9140 a.u.
The fluorescence intensity of `CCGATCAGACCAGCAAACGTGCAAACCACTTATGGA` is reported as 10400 a.u.
With `CGGGGTTAAGTTTGTTAAGTGGGTGGCTTGCAGCAG` the fluorescence intensity was 3950 a.u.
`AACTGGCATAATCGAGTTGTGACGAACAAACTTAAC` has a fluorescence intensity of 3790 a.u.
`ACCATATTGATTTCGCATGTGTCTCTGGTTCATCGG` gave a fluorescence intensity of 10500 a.u.
For `TGCGCGTTTTTCTGGGACGTGCTAACAAACGAGAAA`, the fluorescence intensity was 7810 a.u.
With `CACGTAGAAGCTATCTTGATCAAGACTCTTTCTTTA` the fluorescence intensity was 3470 a.u.
`CGGGGTTAAGTTTGTGGAGTGGGTGGCTTGCAGCAG` has a fluorescence intensity of 4400 a.u.
For `ACAGCATTCGACGGAGTCGTGGGTACTTACGAACGG`, the fluorescence intensity was 7990 a.u.
`CGTCCTAGTGATTGGGGTGTGGGTGCCATGAGGAAG` gave a fluorescence intensity of 8530 a.u.
With `AAAGCGGTAATTTGCCCTGTGGGTGCAGATATCTAT` the fluorescence intensity was 4180 a.u.
For `GAAAAAAAATTCTTACGCGTGAACCAAAACAAAAAT`, the fluorescence intensity was 6270 a.u.
The fluorescence intensity of `CTAACGAAGGTTTGTGAAGTGGGTGACAAGCCAAGT` is reported as 3610 a.u.
With `CTAACGAAGGTTTGAATTGTGGGTGACAAGCCAAGT` the fluorescence intensity was 3900 a.u.
For `AAAATTTGGCAACCTAAAGGAGATTTTGGACGAGTT`, the fluorescence intensity was 2290 a.u.
For `GTCTTGTCTCATTTGCACGTGTTTTTCCCCACTTCA`, the fluorescence intensity was 18400 a.u.
`CCAAAAAGCCTCCGTCACGTGGTCGCTTGCGCTTAT` gave a fluorescence intensity of 17300 a.u.
The fluorescence intensity of `TACATAGTAACGTATCACCTGTTTTACTTTCAAGAT` is reported as 5400 a.u.
`ACCGTCGAGCCTCACATCGTGGTCGGGAGAGACTCT` has a fluorescence intensity of 8810 a.u.
`AAAGCGGTAATTTTTCACGTGTTTTCACATATCTAT` gave a fluorescence intensity of 14100 a.u.
`TTGTCCTCGATACGGCATGCGTATAAAGAGATATAA` gave a fluorescence intensity of 8070 a.u.
For `AAATTACTAAGTTGTAGAGTGGGTGACGCCGTATGA`, the fluorescence intensity was 4300 a.u.
`GTCTTGTCTCATTTTCACGTGCATTTCCCCACTTCA` has a fluorescence intensity of 14100 a.u.
`TGGTTGCCAGCTCGCTATGTGACGGGCTTAAAGTAC` has a fluorescence intensity of 3680 a.u.

Set 2
Target: Histone acetyltransferase KAT6A, winged helix 2, GST fusion (KAT6A, Homo sapiens, UniProt Q92794, residues 85-181)
Technique: protein binding microarray
Molecule type: double-stranded DNA, one strand shown
Medium: in vitro
Tested at: not given
Setting: 8-mer, flanks averaged, mean of 2 arrays, mostly near background
Relative to: not given
Direction: higher = stronger binding
Target sequence (chain): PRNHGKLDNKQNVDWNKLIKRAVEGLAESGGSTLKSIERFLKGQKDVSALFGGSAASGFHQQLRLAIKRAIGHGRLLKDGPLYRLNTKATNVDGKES
`GCCATCGC` gave an E-score of 0.0367.
For `TGCCATAA`, the E-score was -0.149.
For `ACCTACCT`, the E-score was -0.115.
`CACAGCAC` gave an E-score of -0.0375.
For `CGGATCTC`, the E-score was 0.0327.
`TACGCCAA` has an E-score of -0.0596.
For `TACCTGAA`, the E-score was -0.00017.
With `GATTACCA` the E-score was -0.123.
The E-score of `ACTCAAGA` is reported as -0.0287.
For `AACACCTA`, the E-score was -0.161.
`GCACAGTA` gave an E-score of 0.0535.
`CGGGCAAG` has an E-score of 0.106.
The E-score of `GTGGAACA` is reported as 0.155.
With `TCAGATGA` the E-score was 0.0171.
With `TATACTAA` the E-score was -0.0256.
For `AGGTATAT`, the E-score was -0.064.

Set 3
Target: Interferon regulatory factor 5, full length, phosphomimetic (IRF5, Homo sapiens, UniProt Q13568-2, residues 1-514, S451D/S453D/S456D/S462D)
Technique: protein-binding microarray
Molecule type: double-stranded DNA, one strand shown
Medium: in vitro
Tested at: 940 nM top
Setting: 60-bp whole probe
Together with: salmon DNA 0.4 mg/ml
Relative to: random background probes
Direction: higher = stronger binding
All sequences stand within: GCCTAGCAC … GTCTTGATTCGCTTGACGCTGCTG
`AAGACTTTGCTCTGTGCGTAGGTGCTA` — result for “fitted relative affinity”: -0.614 z-score.
`GACTGTTTCGGGTTTCGGGACGTGCTA`: “fitted relative affinity” 4.81 z-score.
Under “fitted relative affinity”, `ATTTACATGCATATAGTATAGTGCTAG` is recorded as -0.0807 z-score.
`TTAGGTCTCATTCTCCTTTAGTGCTAG`: “fitted relative affinity” 1.83 z-score.
For `CACGGTTTCGACACTGGGGACGTGCTA`, “fitted relative affinity” read 6.84 z-score.
`AAAATTTTGCTTCTAGAACAGTGCTAG`: “fitted relative affinity” -0.511 z-score.
`AACGGTATCCTTATCCTGACGTGCTAG` — result for “fitted relative affinity”: 0.336 z-score.
For `TCATGTTTGTCACTCTCAGAGTGCTAG`, “fitted relative affinity” read 0.721 z-score.
For `TTAGGTTCCGGGTTTCGGTTAGTGCTA`, “fitted relative affinity” read 6.24 z-score.
`TTAGGTATCGACTTTCTGTTAGTGCTA`: “fitted relative affinity” 5.3 z-score.
For `CAAGGCAAGAAACAAACAACGTGCTAG`, “fitted relative affinity” read -0.414 z-score.
Under “fitted relative affinity”, `TCATCTTTTTTTCTTTTACTGTGCTAG` is recorded as 2.2 z-score.
`TAGATATTATATCTGTGTTAGTGCTAG` — result for “fitted relative affinity”: -0.271 z-score.
`GTAAACCATCCAAATGTTATGTGCTAG`: “fitted relative affinity” 0.211 z-score.
Under “fitted relative affinity”, `TCAAAAATGGCTTTGCAACTGTGCTAG` is recorded as -0.773 z-score.
For `GACGGTATCTGTCTCGGGACGTGCTAG`, “fitted relative affinity” read 2.5 z-score.
`GACGATTTCGGGTACCGAGACGTGCTA` — result for “fitted relative affinity”: 0.716 z-score.
For `TCATACCTCATCTTTCCCACTGTGCTA`, “fitted relative affinity” read 1.4 z-score.
Under “fitted relative affinity”, `TCAGTTTTAAATAGGGCACTGTGCTAG` is recorded as 0.0776 z-score.
`TTAGGTTTCGGGCTGGGTTAGTGCTAG`: “fitted relative affinity” 9 z-score.
Under “fitted relative affinity”, `CCACATATGCTTTTTAGAAAGTGCTAG` is recorded as 0.467 z-score.
`GACGATATCGACTATCGGGACGTGCTA`: “fitted relative affinity” 0.168 z-score.
Under “fitted relative affinity”, `GACGGTCTCGGTTTCGGGGCGTGCTAG` is recorded as 6.34 z-score.
For `GGCTGTTTGGCCCTGAACCTGTGCTAG`, “fitted relative affinity” read -0.504 z-score.
For `TTAGATTCCTGTTTCGATTAGTGCTAG`, “fitted relative affinity” read 4.42 z-score.

Set 4
Target: RING finger protein unkempt homolog, zinc fingers 1-6, GST-SBP tag (UNK, Homo sapiens, UniProt Q9C0B0, residues 30-357)
Sequence of UniProt Q9C0B0 (30-357, looked up): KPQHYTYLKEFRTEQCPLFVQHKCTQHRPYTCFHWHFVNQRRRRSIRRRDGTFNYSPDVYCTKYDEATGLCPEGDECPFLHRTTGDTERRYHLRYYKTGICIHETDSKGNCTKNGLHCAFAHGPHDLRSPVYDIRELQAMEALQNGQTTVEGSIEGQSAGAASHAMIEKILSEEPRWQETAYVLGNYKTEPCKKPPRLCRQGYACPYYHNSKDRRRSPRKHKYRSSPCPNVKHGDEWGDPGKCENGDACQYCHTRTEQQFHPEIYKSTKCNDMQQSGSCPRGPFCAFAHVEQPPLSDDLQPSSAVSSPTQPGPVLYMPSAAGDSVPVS
Technique: RNA Bind-n-Seq
Molecule type: RNA
Medium: in vitro
Tested at: not given
Setting: RNA with constant flanks, human and mouse sites, ends assumed
Relative to: input RNA pool
Direction: higher = stronger binding
All sequences stand within: GGGAGUUCUACAGUCCGACGAUC … CAACAGAGGAUUGAGCAUCA
For `GGCGGUGGCUCCGAGAUAGGGGUCUUUCAUCUGGGGGUGCCUGUGGAGGCCUUGUUCUUCGUCGGGAACCAGCUCAUUGCUACAAGCCACACAGGGCGCAUCGGGGUGUGGAAUGCCGUC`, the bound/input enrichment was 0.379 ratio.
`GCAUUAACAAACAAGGUACAAAUGACCUCUCCGAGCAGCACUGGCAGUCCCAUGUUUAAAUUUUCAUCUCCAAUCGUAAAAUCUACUGAGGCAAAUGUACUACCUCCAUCAUCUAUUGGA` gave a bound/input enrichment of 0.277 ratio.
`UCUGACAGGAAUAUAGUACUGUACGAUAUGAGGCAAGCUACUCCUUUGAAAAAGGUUAUCUUAGAUAUGAGAACAAAUACAAUCUGUUGGAACCCUAUGGAAGCUUUCAUUUUUACAGCA` has a bound/input enrichment of 0.56 ratio.
`GAGGUUAGAGCUAGUGUGGUUUUGAGGUCUCACUACACUUUGAGGAAGGCAGCUUUUAAUUCAGUGUUUCCUUAUGUGUGCGUACAUUGCAACUGCUUACAUGUAAUUUAUGUAAUGCAU` gave a bound/input enrichment of 0.591 ratio.
With `UAUACAUUUGUCUAACUUUGUGGUAAGUGAUCUGAAUUUUAUGUUAGGGUUAGGAUAUUUUUGUGAAACAUGGAUAUUUUUUUUUUGGUAAUUAUAUAAUUGAGAGUUUGGAAUGAAAUC` the bound/input enrichment was 13.8 ratio.
`GUUCUCAGUAGUCCGAACUCUAAUAUGAGCAGCAUGGUAGUUACAGCCAAUGGUAAUGAUAGUAAAAAAUUUAAAGGAGAAGAUAAAAUGGAUGGUGCUCCUUCUCGUGUACUUCAUAUU` gave a bound/input enrichment of 15.9 ratio.
With `CUGAGUGGGGAAGGAAAUGUGACCUUCAAUGGUCACAAAGCAGCUAUCACUACCUUGAAGUAUGAUCAGCUAGGAGGCAGACUGGCAUCUGGGUCCAAGGACACAGAUAUUAUUGUAUGG` the bound/input enrichment was 0.208 ratio.
`ACUAACAAAAGUGCCUCAUCAUAAAAAUACAGUUGGUUUUUAGGGUGCCAUAUUGUUAAAAUUAGAUAACUUACUUACAUUGAAUAAACGAAUGCGUUUUAUUGGUAACAGAUAUCAUUA` has a bound/input enrichment of 0.985 ratio.
With `AGCAAAGAAGAAGUUAUCAAGUUCUUGGAAAAUACUCCAUCCAGUCUGAAUAUAGAAGAUAUAGAAGACCUUUUCUCUCUGGCUCAGUAUUAUUGCAGCAAAACACCGGCUUCUUUUAGG` the bound/input enrichment was 0.432 ratio.
`UUCUCUUCUUCCGUGGUAGGAAGCCUCCCCAUGUACUCAUGCCUCGAGCUGUUUCUAAGCUAGCUGACUGCUGCACUGCUGUGAGCAGUAUCUUAACCCUCCUCUUUGCCAGGGGAGAAU` gave a bound/input enrichment of 0.481 ratio.
For `CUUAUUGUGGAUGGCCGAGGCAAAGCAACAAUAUCUAAUGAUGGGGCCACAAUUCUGAAACUCCUCGAUGUUGUCCAUCCUGCAGCAAAGACUUUAGUGGACAUAGCCAAGUCCCAGGAU`, the bound/input enrichment was 0.16 ratio.

A few entries again (set 3):
For `TCATGTTTGTCACTCTCAGAGTGCTAG`, “fitted relative affinity” read 0.721 z-score.
For `TTAGGTTCCGGGTTTCGGTTAGTGCTA`, “fitted relative affinity” read 6.24 z-score.
`TTAGGTATCGACTTTCTGTTAGTGCTA`: “fitted relative affinity” 5.3 z-score.
For `CAAGGCAAGAAACAAACAACGTGCTAG`, “fitted relative affinity” read -0.414 z-score.
